# Measurements collected from several papers.
# Each line is one published result; not all experiments were run side by side.
# Method: steady-state kinetics
# B1: enzyme E11H/K10H/Q8H (Geobacillus stearothermophilus, UniProt P42328); chain MKAAVVEHFHHPLKIKEVEKPTISYGEVLVRIKACGVCHTDLHAAHGDWPVKPKLPLIPGHEGVGIVEEVGPGVTHLKVGDRVGIPWLYSACGHCDYCLSGQETLCEHQKNAGYSVDGGYAEYCRAAADYVVKIPDNLSFEEAAPIFCAGVTTYKALKVTGAKPGEWVAIYGIGGLGHVAVQYAKAMGLNVVAVDIGDEKLELAKELGADLVVNPLKEDAAKFMKEKVGGVHAAVVTAVSKPAFQSAYNSIRRGGACVLVGLPPEEMPIPIFDTVLNGIKIIGSIVGTRKDLQEALQFAAEGKVKTIIEVQPLEKINEVFDRMLKGQINGRVVLTLEDK
# B2: LYS1 C205S/K77M (Saccharomyces cerevisiae, UniProt P38998); chain MAAVTLHLRAETKPLEARAALTPTTVKKLIAKGFKIYVEDSPQSTFNINEYRQAGAIIVPAGSWKTAPRDRIIIGLMEMPETDTFPLVHEHIQFAHCYKDQAGWQNVLMRFIKGHGTLYDLEFLENDQGRRVAAFGFYAGFAGAALGVRDWAFKQTHSDDEDLPAVSPYPNEKALVKDVTKDYKEALATGARKPTVLIIGALGRSGSGAIDLLHKVGIPDANILKWDIKETSRGGPFDEIPQADIFINCIYLSKPIAPFTNMEKLNNPNRRLRTVVDVSADTTNPHNPIPIYTVATVFNKPTVLVPTTAGPKLSVISIDHLPSLLPREASEFFSHDLLPSLELLPQRKTAPVWVRAKKLFDRHCARVKRSSRL
# B3: enzyme H130Y (Salinispora arenicola, UniProt A8M783); chain MASTPWISFTTDYGLADGFVAACHGVLARLAPTARVIDVTHLVPPGDVRRGAAVLAQTVPYLPAAVHVAVVDPGVGTARRAIALTAGNGLLVGPDNGLLLDAATALGGVDAAVELTNPDWLGARMSATFYGRDVFAPVAARLALGAPLADAGPAVEPGALVRLPTPLVQPETDGFTAEVLTVDHFGNVQLAATGALLESLPRSLRVAHRPAVHARTFDDAPPGGLLVHVDSAGLVAVAVNGGRAADLLAVTPGDQLRVTAG
# B4: enzyme (Cyanidioschyzon merolae, UniProt M1V8C6); chain EPPRDTAATSSHEFTHHVTEKAKDWSGSGTWLQSYIEQGPLAAAIPPQYAPSRSLSRWQAWGSYLFKELGLDGTLERDQNRIFRFYLPVFAWSLHVVNRLQRDERRKQHGVIIGLQCPQGGGKTTLTAALQKLFDLEQRRCVSLSIDDFYLTRREQEALARAFPENPLLGSRGNPGTHDISLALQVLNEVVAAPYPGEHAEVAVPRYDKSAFQGLGDRAPPEQWPLVSRPVDVVFLEGWCLGFRPLALHERPATMDPITLRHLMQVDRFLAEDFSRLYPLLDAFIVIALDGPKLSESLRIVYQWRLEAEQQMRAAGRPAMTDEQVYAFVDKFMPAYKAYLGDLYGGPPLTGNLSRELRVGIDETRSPTRLNPHSELVP
# B5: enzyme (Glycine max, UniProt I1LJ26); chain MMELFLSCMVLFVLTLATLGAHWIWVVSSSRAGSKLPPGPFPLPIIGNLLALGKKPHQSLAKLAETHGPIMTLKFGQVTTIVVSSADMAKEVLLTHDHSLSSNRVIPQAVQVHNHHNHSITFLPVSPLWRDLRKICIANLFSNKTLDASQDLRRSKLHQLLHDIHRSSLAGEAVDVGKAVFNTSMNLLSNTFFSLDLVHSSSSAAAVDFKDLVLKIMEESGKPNLADFFPVLKFMDPQGIKTRTTVYTGKIIDTFRALIHQRLKLRENNHGHDTNNDMLNTLLNCQEMDQTKIEHLALTLFVAGTDTITSTVEWAMAELLQNEKAMSKAKQELEETIGRGKAVEESDIGRLPYLQAVIKETFRLHPAVPFLIPRKANADVEISGGYTIPKDAQVFVNVWAIGRNSSIWKNNANVFSPERFLMDSEDIDVKGHSFELTPFGAGRRICLGLPLAMRMLYLVLGSLINCFNWKLVEDDDVMNMEDSFGITLAKAQPVILIPEKVHGVIVS
# B6: groEL (Pseudomonas aeruginosa, UniProt P30718); chain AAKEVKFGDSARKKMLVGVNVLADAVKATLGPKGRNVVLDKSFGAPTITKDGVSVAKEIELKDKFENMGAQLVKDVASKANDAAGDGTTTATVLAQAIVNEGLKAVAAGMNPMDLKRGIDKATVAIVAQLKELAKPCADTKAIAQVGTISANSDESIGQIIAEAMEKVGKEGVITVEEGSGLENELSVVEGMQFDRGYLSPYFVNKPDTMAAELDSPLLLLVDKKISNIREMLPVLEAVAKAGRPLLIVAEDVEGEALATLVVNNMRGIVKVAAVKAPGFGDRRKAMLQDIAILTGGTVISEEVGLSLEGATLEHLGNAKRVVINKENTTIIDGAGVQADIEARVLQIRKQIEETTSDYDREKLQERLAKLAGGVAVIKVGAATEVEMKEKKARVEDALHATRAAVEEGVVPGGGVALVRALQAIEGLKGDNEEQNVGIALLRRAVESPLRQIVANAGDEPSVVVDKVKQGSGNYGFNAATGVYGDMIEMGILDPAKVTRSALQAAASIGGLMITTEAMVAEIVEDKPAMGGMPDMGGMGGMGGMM
# B7: SABP2 A105N (Nicotiana tabacum, UniProt Q6RYA0); chain MKEGKHFVLVHGACHGGWSWYKLKPLLEAAGHKVTALDLAASGTDLRKIEELRTLYDYTLPLMELMESLSADEKVILVGHSLGGMNLGLAMEKYPQKIYAAVFLNAFMPDSVHNSSFVLEQYNERTPAENWLDTQFLPYGSPEEPLTSMFFGPKFLAHKLYQLCSPEDLALASSLVRPSSLFMEDLSKAKYFTDERFGSVKRVYIVCTEDKGIPEEFQRWQIDNIGVTEAIEIKGADHMAMLCEPQKLCASLLEIAHKYN
# B8: CYP4F3 A27G/C46R/I34V/M14V/R49Q/W12G (Homo sapiens, UniProt Q08477); chain MALLLAVFLLGPVAASPWLLLLLVGGSWLLARVLAWTYTFYDNCRRLQCFPQPPKRNWFLGHLGLVTPTEQGMRVLTQLVATYPQGFKVWMGPIFPVIRFCHPNIIRSVINASAAIVPKDKVFYSFLKPWLGDGLLLSAGEKWSRHRRMLTPAFHFNILKPYMKIFNESVNIMHAKWQLLASEGSARLDMFEHISLMTLDSLQKCVFSFDSHCQEKPSEYIAAILELSALVTKRHQQILLYIDFLYYLTPDGQRFRRACRLVHDFTDAVIQERRRTLPSQGVDDFLQAKAKSKTLDFIDVLLLSKDEDGKKLSDEDIRAEADTFMFEGHDTTASGLSWVLYHLAKHPEYQERCRQEVQELLKDREPKEIEWDDLAQLPFLTMCIKESLRLHPPVPAVSRCCTQDIVLPDGRVIPKGIICLISVFGTHHNPAVWPDPEVYDPFRFDPKNIKERSPLAFIPFSAGPRNCIGQAFAMAEMKVVLGLTLLRFRVLPDHTEPRRKPELVLRAEGGLWLRVEPLS
# B9: enzyme C424A (Methanosarcina mazei, UniProt Q8PVB1); chain MSEQRSVPLREHLLALKPCRHGGLIQETSETYGIPENEILDFSANFNPLGSPFDYPENGLNFEDIIKKSCGKLLEYPDNRYVEFREAAARFVGLGVTPQSIVPGNGSTEIVRLVVESVIEKGDKVLLPWPTFGEYEMQCRITGAEPVCPSQEEVNTLPDEVLEEAKILFICNPNNPTGKLRTREELKVLAERCREHKTLLYVDEAFIELSDPSQSVADLPAENNYVFVMRSLTKDFAIPGIRMGFGIAPPAMADILNTARLSWNLGAIANNTGIALLNIEGGIDSPYLKKAREMILKEGETLKAKIDRIRGFEAGEVNVNFILVDVSKFMLNSSELTARLAARGVLVRDCVSFHGLGKNYIRVAVRTEKENDRLIAAIGDVITEWGREQAKNELQHVIEKASEEGIGGRKTCEYYPCHFEGQNATFCFCPFYPCENEKTGGKWIQSSRGGRVWSCVDCHLVHKKEIAQKILDCLMHEGDTDELVKVAWKEVMEPIL
# B10: enzyme (Nitrosopumilus maritimus, UniProt A9A5X4); chain MDSQKFDSIIFDCDGVLVDITQSYDKTIDKTCRYVLKEFAKIDSITIDHKIIDGFKSSGGFNDEVDLVYAAILSLYTANKLNKKPSEFIYDVISNTDKTGIRSVQSYLESIYDVSEFLSKLGSLGDRHNNPVYSIFDQFFFGPELYGKLFDKQSKFSEEGMISNDKVILSVSLLETLQKEFGKKIAVVTGRGIESIRYSLKDMMDYFDTKNSAFLEDEPRELAKPNPATLIRAIQSMESKNCLYVGDSMEDYMMAKDAAQAGHSTTFCAIVGTSTNPEDRRKLFADSGVEMILESINDIPKVLNLV
# B11: enzyme (UniProt Q83XK4); chain MATRIAILGAGPSGMAQLRAFQSAQEKGAEIPELVCFEKQADWGGQWNYTWRTGLDENGEPVHSSMYRYLWSNGPKECLEFADYTFDEHFGKPIASYPPREVLWDYIKGRVEKAGVRKYIRFNTAVRHVEFNEDSQTFTVTVQDHTTDTIYSEEFDYVVCCTGHFSTPYVPEFEGFEKFGGRILHAHDFRDALEFKDKTVLLVGSSYSAEDIGSQCYKYGAKKLISCYRTAPMGYKWPENWDERPNLVRVDTENAYFADGSSEKVDAIILCTGYIHHFPFLNDDLRLVTNNRLWPLNLYKGVVWEDNPKFFYIGMQDQWYSFNMFDAQAWYARDVIMGRLPLPSKEEMKADSMAWREKELTLVTAEEMYTYQGDYIQNLIDMTDYPSFDIPATNKTFLEWKHHKKENIMTFRDHSYRSLMTGTMAPKHHTPWIDALDDSLEAYLSDKSEIPVAKEA
# Sequence of UniProt Q4U2R8 (whole entry, looked up): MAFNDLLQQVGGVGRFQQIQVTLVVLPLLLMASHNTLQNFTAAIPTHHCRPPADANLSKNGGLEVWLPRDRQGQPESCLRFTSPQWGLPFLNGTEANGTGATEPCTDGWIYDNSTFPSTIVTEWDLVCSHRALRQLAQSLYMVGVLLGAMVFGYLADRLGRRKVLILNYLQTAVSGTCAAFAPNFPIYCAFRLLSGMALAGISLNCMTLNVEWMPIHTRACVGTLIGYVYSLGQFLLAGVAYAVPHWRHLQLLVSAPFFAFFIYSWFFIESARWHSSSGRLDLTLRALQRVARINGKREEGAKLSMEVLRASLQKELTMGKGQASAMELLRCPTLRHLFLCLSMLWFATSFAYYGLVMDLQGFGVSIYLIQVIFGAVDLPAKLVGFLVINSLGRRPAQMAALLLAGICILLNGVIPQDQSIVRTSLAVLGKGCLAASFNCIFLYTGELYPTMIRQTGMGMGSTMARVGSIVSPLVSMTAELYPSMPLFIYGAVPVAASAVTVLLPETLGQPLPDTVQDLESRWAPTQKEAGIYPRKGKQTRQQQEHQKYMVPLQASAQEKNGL
# Sequence of UniProt P78804 (whole entry, looked up): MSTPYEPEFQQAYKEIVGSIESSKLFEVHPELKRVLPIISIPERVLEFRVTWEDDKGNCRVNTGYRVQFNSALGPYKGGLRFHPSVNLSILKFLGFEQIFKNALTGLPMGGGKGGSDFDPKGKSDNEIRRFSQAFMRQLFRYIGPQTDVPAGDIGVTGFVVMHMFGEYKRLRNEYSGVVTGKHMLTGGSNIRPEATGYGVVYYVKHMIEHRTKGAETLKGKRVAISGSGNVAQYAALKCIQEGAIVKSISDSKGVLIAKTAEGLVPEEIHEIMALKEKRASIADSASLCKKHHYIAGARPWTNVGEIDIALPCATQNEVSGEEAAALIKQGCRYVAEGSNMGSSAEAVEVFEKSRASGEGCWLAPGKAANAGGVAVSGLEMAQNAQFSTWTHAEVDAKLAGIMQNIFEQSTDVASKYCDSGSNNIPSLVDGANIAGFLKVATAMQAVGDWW
# Sequence of UniProt Q86YV5 (whole entry, looked up): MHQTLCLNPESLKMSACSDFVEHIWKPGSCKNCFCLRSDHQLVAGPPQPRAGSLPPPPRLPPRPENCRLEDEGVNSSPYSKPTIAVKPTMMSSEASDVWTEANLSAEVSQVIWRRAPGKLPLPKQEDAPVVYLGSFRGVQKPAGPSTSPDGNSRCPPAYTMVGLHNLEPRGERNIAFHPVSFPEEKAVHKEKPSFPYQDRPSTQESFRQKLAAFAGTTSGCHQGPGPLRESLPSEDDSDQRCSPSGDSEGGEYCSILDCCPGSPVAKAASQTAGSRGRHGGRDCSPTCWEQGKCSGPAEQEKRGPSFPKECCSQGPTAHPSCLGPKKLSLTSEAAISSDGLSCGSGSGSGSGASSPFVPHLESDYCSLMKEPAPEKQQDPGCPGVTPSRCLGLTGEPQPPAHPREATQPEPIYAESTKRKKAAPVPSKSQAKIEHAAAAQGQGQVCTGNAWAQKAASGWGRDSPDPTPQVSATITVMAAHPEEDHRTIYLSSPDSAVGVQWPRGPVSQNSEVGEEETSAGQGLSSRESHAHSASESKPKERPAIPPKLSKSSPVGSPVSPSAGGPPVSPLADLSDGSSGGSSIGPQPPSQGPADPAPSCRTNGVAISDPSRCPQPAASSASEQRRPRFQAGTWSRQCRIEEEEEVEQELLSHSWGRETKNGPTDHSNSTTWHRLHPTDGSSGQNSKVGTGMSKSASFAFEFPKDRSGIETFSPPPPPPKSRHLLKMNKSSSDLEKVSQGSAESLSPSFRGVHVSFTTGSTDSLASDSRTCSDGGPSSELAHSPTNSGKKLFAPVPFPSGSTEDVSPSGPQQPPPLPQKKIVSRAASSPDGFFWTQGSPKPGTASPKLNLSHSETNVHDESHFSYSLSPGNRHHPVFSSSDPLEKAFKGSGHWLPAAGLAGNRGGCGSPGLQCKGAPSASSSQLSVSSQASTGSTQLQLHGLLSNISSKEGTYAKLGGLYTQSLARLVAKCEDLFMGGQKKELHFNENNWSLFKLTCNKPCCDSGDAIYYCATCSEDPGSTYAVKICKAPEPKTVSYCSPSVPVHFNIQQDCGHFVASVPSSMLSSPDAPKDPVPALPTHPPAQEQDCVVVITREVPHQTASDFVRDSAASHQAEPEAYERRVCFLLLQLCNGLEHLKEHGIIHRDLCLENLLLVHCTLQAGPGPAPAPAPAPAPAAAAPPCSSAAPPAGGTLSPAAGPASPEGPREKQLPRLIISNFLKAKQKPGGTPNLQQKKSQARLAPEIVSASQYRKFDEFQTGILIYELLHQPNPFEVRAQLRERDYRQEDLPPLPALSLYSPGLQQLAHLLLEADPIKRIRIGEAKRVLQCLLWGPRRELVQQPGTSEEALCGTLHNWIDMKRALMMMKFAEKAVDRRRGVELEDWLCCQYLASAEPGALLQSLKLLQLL
# Sequence of UniProt O31986 (whole entry, looked up): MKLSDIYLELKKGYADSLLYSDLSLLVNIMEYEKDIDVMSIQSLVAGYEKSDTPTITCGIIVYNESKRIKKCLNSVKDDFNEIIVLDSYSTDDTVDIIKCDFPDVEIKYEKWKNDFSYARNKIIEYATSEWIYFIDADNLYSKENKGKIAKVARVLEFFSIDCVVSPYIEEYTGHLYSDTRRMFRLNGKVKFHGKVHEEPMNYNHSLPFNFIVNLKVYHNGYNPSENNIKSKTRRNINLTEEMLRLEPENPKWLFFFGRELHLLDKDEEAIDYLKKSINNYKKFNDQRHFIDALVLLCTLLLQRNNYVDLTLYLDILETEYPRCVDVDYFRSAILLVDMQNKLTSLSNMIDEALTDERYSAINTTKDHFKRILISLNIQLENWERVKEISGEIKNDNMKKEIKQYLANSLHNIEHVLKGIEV
Substance,substrate,cells,pH,temperature,notes,together with,Km [µM]
B1 (enzyme E11H/K10H/Q8H),NC(=O)c1ccc[n+]([C@@H]2O[C@H](COP(=O)(O)OP(=O)(O)OC[C@H]3O[C@@H](n4cnc5c(N)ncnc54)[C@H](O)[C@@H]3O)[C@@H](O)[C@H]2O)c1,,pH 8,,"apparent, cofactor varied",,50
"PRAG1 (Homo sapiens, UniProt Q86YV5)",Nc1ncnc2c1ncn2[C@@H]1O[C@H](COP(=O)(O)OP(=O)(O)OP(=O)(O)O)[C@@H](O)[C@H]1O,,,,,,57
enzyme (UniProt A0A097IUD8),Nc1ncnc2c1ncn2[C@@H]1O[C@H](COP(=O)(O)OP(=O)(O)O)[C@@H](O)[C@H]1O,,pH 6,25 °C,,16 mM PEP,100
B2 (LYS1 C205S/K77M),NCCCC[C@H](N)C(=O)O,,pH 7,25 °C,,NADH 0.5 mM,25000
B3 (enzyme H130Y),C[S+](CC[C@H](N)C(=O)O)C[C@H]1O[C@@H](n2cnc3c(N)ncnc32)[C@H](O)[C@@H]1O,,pH 7.9,37 °C,apparent,1-200 µM SAM,1.7
B4 (enzyme),O=C(O)[C@H](O)CO,,pH 7.8,30 °C,,,98
B5 (enzyme),O=c1c(-c2ccc(O)cc2)coc2cc(O)ccc12,,pH 7,28 °C,not purified,MnCl2 10 mM,7.49
B6 (groEL),Nc1ncnc2c1ncn2[C@@H]1O[C@H](COP(=O)(O)OP(=O)(O)OP(=O)(O)O)[C@@H](O)[C@H]1O,,pH 7.4,24 °C,apparent,,70.7
acsA D449E (Pseudomonas chlororaphis),C#CCCC(=O)O,,pH 7,,,,500
"enzyme (Pseudanabaena biceps, UniProt L8N0N6)",NC(=O)c1ccc[n+]([C@@H]2O[C@H](COP(=O)(O)O)[C@@H](O)[C@H]2O)c1,,pH 7.4,30 °C,"apparent, cofactor varied",,10200
B7 (SABP2 A105N),CC(=O)Oc1ccc([N+](=O)[O-])cc1,,pH 7.2,22 °C,,,3000
"enzyme (Bacillus subtilis, UniProt O31986)",O=c1ccn([C@@H]2O[C@H](COP(=O)(O)OP(=O)(O)O[C@H]3O[C@H](CO)[C@H](O)[C@H](O)[C@H]3O)[C@@H](O)[C@H]2O)c(=O)[nH]1,,pH 7.5,,,SunA,2100
B8,CCCCC/C=C\C[C@@H](O)/C=C/C=C/C=C\[C@@H](O)CCCC(=O)O,,pH 7.4,,,LTB4,56.2
B9 (enzyme C424A),Nc1ncnc2c1ncn2[C@@H]1O[C@H](COP(=O)(O)OP(=O)(O)OP(=O)(O)O)[C@@H](O)[C@H]1O,,pH 8.5,25 °C,"apparent, anoxic",L-Thr 10 mM,171
"SLC22A6 (Homo sapiens, UniProt Q4U2R8)",O=C(O)c1ccc(C(=O)O)c(-c2c3ccc(=O)cc-3oc3cc(O)ccc23)c1,HEK293/hOAT1,,37 °C,"uptake, not purified",,13.7
"enzyme (Bordetella petrii, UniProt A9I5G2)",CSCC[C@@H](NC(C)=O)C(=O)O,,pH 7,35 °C,,,31800
B10 (enzyme),N[C@H](COP(=O)(O)O)Cc1c[nH]cn1,,pH 7.8,25 °C,,,73
"HMBS (Homo sapiens, UniProt P08397)",NCc1[nH]cc(CCC(=O)O)c1CC(=O)O,,,,,,125
"enzyme (Schizosaccharomyces pombe, UniProt P78804)",NC(=O)c1ccc[n+]([C@@H]2O[C@H](COP(=O)(O)OP(=O)(O)OC[C@H]3O[C@@H](n4cnc5c(N)ncnc54)[C@H](O)[C@@H]3O)[C@@H](O)[C@H]2O)c1,,pH 7,30 °C,apparent,,2600
B11 (enzyme),NC(=O)C1=CN([C@@H]2O[C@H](COP(=O)(O)OP(=O)(O)OC[C@H]3O[C@@H](n4cnc5c(N)ncnc54)[C@H](O)[C@@H]3O)[C@@H](O)[C@H]2O)C=CC1,,pH 7,30 °C,cofactor varied,,24.8

# For quick reference, copied from above:
Substance,substrate,cells,pH,temperature,notes,together with,Km [µM]
enzyme (UniProt A0A097IUD8),Nc1ncnc2c1ncn2[C@@H]1O[C@H](COP(=O)(O)OP(=O)(O)O)[C@@H](O)[C@H]1O,,pH 6,25 °C,,16 mM PEP,100
"HMBS (Homo sapiens, UniProt P08397)",NCc1[nH]cc(CCC(=O)O)c1CC(=O)O,,,,,,125
